{"data": "Measurements of several laboratories", "note": "Every numbered part comes from another study and shows a few of its results, in no order."}
{"data": "Study 1", "target": "Interferon regulatory factor 5, full length, phosphomimetic (IRF5, Homo sapiens, UniProt Q13568-2, residues 1-514, K96S/S451D/S453D/S456D/S462D)", "method": "protein-binding microarray", "form": "double-stranded DNA, one strand shown", "medium": "in vitro", "tested at": "250 nM", "notes": "60-bp whole probe", "with": "salmon DNA 0.4 mg/ml", "baseline": "random background probes", "direction": "higher = stronger binding", "shared flanks, not repeated": "GCCTAGCAC … GTCTTGATTCGCTTGACGCTGCTG"}
{"Strand": "TCAGGAAACCGGAAAGGCACTGTGCTA", "log fluorescence [z-score]": -0.181}
{"Strand": "TACTTTCTGAATGCTCCCCCTGTGCTA", "log fluorescence [z-score]": 4.35}
{"Strand": "TTAGGTCTCCGACTGCTTTAGTGCTAG", "log fluorescence [z-score]": -0.461}
{"Strand": "TCACTTTTAATTTTTAAACTGTGCTAG", "log fluorescence [z-score]": 0.98}
{"Strand": "TTAGAACTGGGGTATTGATTAGTGCTA", "log fluorescence [z-score]": 0.05}
{"Strand": "GACGGTATCCTTCTCCTGACGTGCTAG", "log fluorescence [z-score]": 0.0418}
{"Strand": "GACGATATCAGTAACGAGACGTGCTAG", "log fluorescence [z-score]": 0.951}
{"Strand": "ATGATGTGTCAAAAATTGCAGTGCTAG", "log fluorescence [z-score]": -0.592}
{"Strand": "GACGGTATCGACACTGGGTACGTGCTA", "log fluorescence [z-score]": 1.73}
{"Strand": "TCACTTCTCTTTTTGCTACTGTGCTAG", "log fluorescence [z-score]": 1.65}
{"Strand": "GTCGGACTGGGTATCGGGACGTGCTAG", "log fluorescence [z-score]": 0.235}
{"Strand": "GACGGACGGGGACTGGGGACGTGCTAG", "log fluorescence [z-score]": -0.656}
{"Strand": "GATGGTATCCTACTGCTGACGTGCTAG", "log fluorescence [z-score]": -0.242}
{"Strand": "GACGATTTCTGTTCCGAGACGTGCTAG", "log fluorescence [z-score]": 1.83}
{"Strand": "TCAGTTTTGTGTCTGGGACTGTGCTAG", "log fluorescence [z-score]": 0.391}
{"Strand": "GACGGTTTCGCGACTGGGGACGTGCTA", "log fluorescence [z-score]": 1.01}
{"Strand": "TCATATATACAAACTAAGACTGTGCTA", "log fluorescence [z-score]": 0.656}
{"Strand": "TTAGGTCTCGGACTGGGTAAGTGCTAG", "log fluorescence [z-score]": -0.267}
{"data": "Study 2", "target": "Histone acetyltransferase KAT6A, both winged helices, GST fusion (KAT6A, Homo sapiens, UniProt Q92794, residues 1-181)", "method": "protein binding microarray", "form": "double-stranded DNA, one strand shown", "medium": "in vitro", "tested at": "not given", "notes": "8-mer, flanks averaged, mean of 2 arrays, mostly near background", "baseline": "not given", "direction": "higher = stronger binding", "Residues (chain)": "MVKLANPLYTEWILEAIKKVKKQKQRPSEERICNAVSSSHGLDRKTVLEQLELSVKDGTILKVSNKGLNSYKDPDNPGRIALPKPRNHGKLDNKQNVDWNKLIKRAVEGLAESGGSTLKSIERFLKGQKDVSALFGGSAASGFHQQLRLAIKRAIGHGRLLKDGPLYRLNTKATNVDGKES"}
{"Strand": "AGTGTCGG", "E-score": 0.154}
{"Strand": "ACCACCCG", "E-score": 0.175}
{"Strand": "CTTAGGAC", "E-score": -0.0937}
{"Strand": "CCGTCTTC", "E-score": 0.064}
{"Strand": "GCGTGCCA", "E-score": 0.167}
{"Strand": "AACTCGTG", "E-score": -0.00293}
{"Strand": "CTAGTACA", "E-score": -0.0531}
{"Strand": "AAATTTGG", "E-score": -0.196}
{"Strand": "AGACACAG", "E-score": -0.207}
{"Strand": "AGACCCCC", "E-score": 0.0683}
{"Strand": "TACTTAGA", "E-score": -0.152}
{"Strand": "ATCAATGC", "E-score": 0.0541}
{"Strand": "AGCTCTCA", "E-score": -0.242}
{"Strand": "GACCCACA", "E-score": -0.194}
{"Strand": "ACAGACTC", "E-score": -0.0665}
{"Strand": "GTCTATCA", "E-score": -0.0501}
{"Strand": "ATTCGCGA", "E-score": 0.0817}
{"Strand": "ATACCTTC", "E-score": -0.116}
{"Strand": "CGACTACA", "E-score": -0.0719}
{"Strand": "TGACCACA", "E-score": -0.188}
{"Strand": "CTACACAA", "E-score": -0.0534}
{"Strand": "AAGGAACT", "E-score": -0.0312}
{"Strand": "GTGGTCAA", "E-score": -0.241}
{"Strand": "TTCGAAAA", "E-score": 0.0703}
{"Strand": "AAAACGTT", "E-score": 0.0887}
{"data": "Study 3", "target": "Ras GTPase-activating protein-binding protein 1, full length (G3BP1, Homo sapiens, UniProt Q13283)", "method": "RNA Bind-n-Seq", "form": "RNA", "medium": "in vitro", "tested at": "200 nM", "notes": "whole 134-nt RNA, ends assumed", "with": "150 mM LiCl", "baseline": "input library", "direction": "higher = stronger binding", "all molecules": "7-deaza-guanosine replaces G", "shared flanks, not repeated": "GGGAGUUCUACAGUCCGACGAUC … UGGAAUUCUCGGGUGUCAAGG", "UniProt Q13283, sequence (whole entry, looked up)": "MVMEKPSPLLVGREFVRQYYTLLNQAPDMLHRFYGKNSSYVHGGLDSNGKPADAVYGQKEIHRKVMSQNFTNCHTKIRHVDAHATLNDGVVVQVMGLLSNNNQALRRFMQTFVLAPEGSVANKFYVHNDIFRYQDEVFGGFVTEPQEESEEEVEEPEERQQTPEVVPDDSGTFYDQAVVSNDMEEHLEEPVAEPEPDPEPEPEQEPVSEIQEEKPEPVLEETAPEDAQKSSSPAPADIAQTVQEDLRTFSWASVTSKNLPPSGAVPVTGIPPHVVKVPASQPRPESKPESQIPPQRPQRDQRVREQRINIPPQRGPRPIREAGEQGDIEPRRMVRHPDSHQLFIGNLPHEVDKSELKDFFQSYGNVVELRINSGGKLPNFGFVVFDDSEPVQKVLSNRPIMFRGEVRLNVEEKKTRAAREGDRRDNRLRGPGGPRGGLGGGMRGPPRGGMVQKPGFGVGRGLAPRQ"}
{"Strand": "CCUCAAGUCCUGUGCUACACAUCGUAUGUACCGAAUCGGGGCGGGCGGCGGGAAAGUAUUAUGUUACGCCGUUCGGAUCUGCACUUCCAG", "log2 enrichment": -0.342}
{"Strand": "CAAGUCCUGUGCUACACAUCGUAUGUACCGAAUCGGAAAGGGGAAAGGGGAAAGGAAAGUAUUAUGUUACGCCGUUCGGAUCUGCACUUC", "log2 enrichment": 0.0189}
{"Strand": "AGUCCUGUGCUACACAUCGUAUGUACCGAAUCGGGAAAAAGGGAAAAAGGAAAAAGGAAAGUAUUAUGUUACGCCGUUCGGAUCUGCACU", "log2 enrichment": -1.03}
{"Strand": "UGCUUCUGAGUUGCCCAGGAGACCACUGGCAGAUGUCCCGGCGAAGAGAAGAGACACAUUGUUGGAAGAAGCAGCCCAUGACAGCUCCCC", "log2 enrichment": 0.911}
{"Strand": "ACCAAAAAGGUGGGCAUCUUUGGGAAGUGGGGCAAGGGGGGGAUAGGGAGGGGGGUAACACUUUGGGAACAGGUGGUCCCAGGUCGUUUC", "log2 enrichment": 0.344}
{"Strand": "UGGGAGGUGGAUGUUGUUUAUUUUUUUAGCUCAUUUCCAGGGGUGGGAAUUUUUUUUUAAUAUGUGUCAUGAAUAAAGUUGUUUUUGAAA", "log2 enrichment": -0.104}
{"Strand": "GCAGGAAGUAAAAAUAAAUGGAAAUGCUUCGGAUAGUGGCAGGGGUGGGGGUUGCUAAGGAAAGGGUGGGAUGGGAGUGGGUAAAGAGUU", "log2 enrichment": 0.111}
{"Strand": "UGGCCCUGGUGGCAUGCGGGGAGGAAGAGGUGGCCUCAUGGAUCGUGGUGGUCCCGGUGGAAUGUUCAGAGGUGGCGGUGGUGGAGACAG", "log2 enrichment": -0.248}
{"Strand": "CCUGUGCUACACAUCGUAUGUACCGAAUCGGGCCCCCCGGGGCCCCCCGGGGCCCCCCGGAAAGUAUUAUGUUACGCCGUUCGGAUCUGC", "log2 enrichment": -1.78}
{"Strand": "UAACUUUAGAGGAGGAUCUGAUGGAUAUGGCAGUGGACGUGGAUUUGGGGAUGGCUAUAAUGGGUAUGGAGUAGGACCUGGAGGUGGCAA", "log2 enrichment": 0.0432}
{"Strand": "UGGGAGGUGGAUUUUGUUAAUUUUUUUAGCUCAUUUCCAGGGGUGGGAAUUUUUUUUUAAUAUGUGUCAUGAAUAAAGUUGUUUUUGAAA", "log2 enrichment": -0.664}
{"data": "Study 4", "target": "RNA binding protein fox-1 homolog 2, RRM domain, GST-SBP tag (RBFOX2, Homo sapiens, UniProt O43251-10, residues 100-194)", "method": "RNA Bind-n-Seq", "form": "RNA", "medium": "in vitro", "tested at": "365 nM", "notes": "natural RNA segment, single round, ends assumed", "baseline": "no-protein control", "direction": "higher = stronger binding", "shared flanks, not repeated": "GGGAGUUCUACAGUCCGACGAUC … UGGAAUUCUCGGGUGCCAA", "Target sequence (chain)": "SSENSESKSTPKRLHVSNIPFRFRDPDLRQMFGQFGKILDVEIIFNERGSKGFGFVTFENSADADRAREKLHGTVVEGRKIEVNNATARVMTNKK"}
{"Strand": "CUCUGGAGCUGGAUAGACUGAUGGCCUCACUCUCUGACUUCCGCGUUCAAAACCAUGUUCCAGCCUCUGGGCCAACUCAGCCACCGGUGGUGAGCUCCACAAAUGAGGGC", "RBNS enrichment (R)": 0.348}
{"Strand": "CCCAGACACCAGCUCCUCUGGCCUGGACUCAACUAUUGAAAUCUCUCUGAGACCUCUGCAAAGAUGUCCCUUUUAUGCCCUUGACCUUGACUCACCAUGGGCUGCUGGGG", "RBNS enrichment (R)": 0.258}
{"Strand": "AACGUCAGUGGAGUAAAUAUUCGACAGGCCAUAACUUGAGUCUAUUGCCUUGCCUUUAUUACAUGUACAUUUUGAAUUCUGUGACCAGUGAUUUGGGUUUUAUUUUGUAU", "RBNS enrichment (R)": 0.638}
{"Strand": "AUAAGGCUAAAUAUUACUUUACACAGUAAGAUGUGAAAUUCACAAAAAGUAAACCAAACAAAACGAAUGAAAAACUGGAAAUAAUUCGUUUCCAUAUCUUUCCAUACAUC", "RBNS enrichment (R)": 0.669}
{"Strand": "CCCCUUGGUCUCUUUAUGCUGCUGAGUCCCCCUUUCCUGCCCUCCCUGGCUACUGGGUCAAUAAUCUUUCAGGCCAUGAAUCUGGGAGGAGAGUGGUCUGUAAGCUCCAU", "RBNS enrichment (R)": 0.504}
{"Strand": "UUUUGUUCUGUUGAUGAAGCAAAUUUGACAGAAUAUUAUUUCUCCAUAUCACACAUAUCUACACUAUUAUCUGAUAACACACUGGUAGUUUUUAAGACUAAGGCAGUUUA", "RBNS enrichment (R)": 0.462}
{"Strand": "CAGUGGCCAUUUAUUAGCAUCAUAUUUAUUUGUAUUUUCUCAACAGAUGUUAAGGUACAACUGUGUUUUUCUCGAUUAUCUAAAAACCAUAGUACUUAAAUUGAACAGUU", "RBNS enrichment (R)": 0.669}
{"Strand": "UACCAUGGAUUUGAAAUGAACUCAUCCUUGCUGUGAGCAUCCAGGAGCCCUUGAGAAGUUUAUCUAUGACUAUGAAACUGGCAACGUCACCCCAGAAUUACGGUCAGCCU", "RBNS enrichment (R)": 0.735}
{"Strand": "AACAAAUUUUAUCAGCAGUGUUUUUUGUUUUUUUGAGAUGGAGACUUGCUCUGUCGCCCAGGCUGGAGCGCAGUGGCGCAAUCUCGGCUCACUGCAACCUCCACCUCCUG", "RBNS enrichment (R)": 1}
{"Strand": "UUGUACAUUGAGAGGAGGGGCUUGGUUUCACCAUCCCCGUCCUUUCCCCACGGAUCCACCAGGAUUGAAGGAGCUUCGGACCCAUGCCGCCUUCUUUUCCCACGCCUCUA", "RBNS enrichment (R)": 0.306}
{"Strand": "GUGAACAAAAGGGAUGUGUUAUGGGGCUGGAGGUGUGAUUAGGUAGGAGGGAAACUGUUGGACCGACUCCUGCCCCCUGCUCAACACUGACCCCUCUGAGUGGUUGGAGG", "RBNS enrichment (R)": 0.627}
{"Strand": "AUAUUUAAUCAAUUAAAAUGUUUCUCUGUAAGUCGUCGAUGUUUCUGUUAAUACAGUUUCCUGAAGCACUUAAUUGUCUUUCUUCAUUGAGCUAGAGUAAGGAACGCCUU", "RBNS enrichment (R)": 0.302}
{"note": "Some of these lines once more (study 2):"}
{"Strand": "ACCACCCG", "E-score": 0.175}
{"Strand": "CTTAGGAC", "E-score": -0.0937}
{"Strand": "CCGTCTTC", "E-score": 0.064}
{"Strand": "GCGTGCCA", "E-score": 0.167}
{"Strand": "AACTCGTG", "E-score": -0.00293}
{"Strand": "CTAGTACA", "E-score": -0.0531}
